Measured values from different studies.
Numbered parts are unrelated; each lists some results of a single study. Substitutions count along the parent as printed.

Sample 1
Target: PABPC1L2, full length, GST fusion (mouse, UniProt A0ABA7IW68)
Technique: RNAcompete
Form: RNA
Matrix: in vitro
Tested at: 20 nM
Setting: 7-mer, probes averaged, single round
Relative to: mean of 7-mers
Direction: higher = stronger binding
Residues (chain): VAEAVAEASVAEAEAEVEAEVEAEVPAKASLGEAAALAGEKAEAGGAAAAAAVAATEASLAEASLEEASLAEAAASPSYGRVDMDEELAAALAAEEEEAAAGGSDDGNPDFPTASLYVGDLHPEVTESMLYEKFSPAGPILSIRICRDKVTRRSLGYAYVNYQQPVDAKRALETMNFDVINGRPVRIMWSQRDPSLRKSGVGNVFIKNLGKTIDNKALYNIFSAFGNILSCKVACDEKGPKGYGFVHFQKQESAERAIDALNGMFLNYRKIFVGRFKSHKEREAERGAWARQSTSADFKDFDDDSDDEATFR
The 7-mer Z-score of `AAAGCCA` is reported as 0.767.
For `AUGUCGU`, the 7-mer Z-score was -0.291.
`CCCGUCA` has a 7-mer Z-score of -0.296.
The 7-mer Z-score of `UCCAUGC` is reported as -0.289.
With `GAGCCGA` the 7-mer Z-score was -0.275.
With `ACAUGUC` the 7-mer Z-score was -0.00833.
For `UCUACGG`, the 7-mer Z-score was -0.162.
With `UGCUUCG` the 7-mer Z-score was -0.427.

Sample 2
Target: CCNA2, cyclin fold, Cln2 fusion (human)
Technique: yeast growth competition, sequencing
Matrix: yeast
Setting: strong parent motif
Relative to: not given
Direction: higher = stronger binding
Parent: viral docking peptide; CKVKRKLFGSENI
Under “normalised enrichment score”, `R5K` is recorded as 3.53.
`I13A`: “normalised enrichment score” 5.83.
For `V3A`, “normalised enrichment score” read 5.6.
`N12A` — result for “normalised enrichment score”: 4.75.
For `E11A`, “normalised enrichment score” read 4.44.
`C1A`: “normalised enrichment score” 5.22.
For `K4A`, “normalised enrichment score” read 5.27.
For `F8L`, “normalised enrichment score” read 0.686.
Under “normalised enrichment score”, `R5A L7A` is recorded as 0.428.
`R5A` — result for “normalised enrichment score”: 1.07.

Sample 3
Target: RNA binding protein fox-1 homolog 2, RRM domain, GST-SBP tag (RBFOX2, Homo sapiens, UniProt O43251-10, residues 100-194)
Technique: RNA Bind-n-Seq
Form: RNA
Matrix: in vitro
Tested at: 365 nM
Setting: natural RNA segment, single round, ends assumed
Relative to: no-protein control
Direction: higher = stronger binding
Construct (chain): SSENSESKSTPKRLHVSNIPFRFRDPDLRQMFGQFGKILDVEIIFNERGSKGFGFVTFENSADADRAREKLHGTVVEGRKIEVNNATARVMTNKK
`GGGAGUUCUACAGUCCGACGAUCGCAGGUUAUUGGAAUAGAAUCCAAAAUCAUUUUCCAGCCAAAACAUCCAUUCGAAAUCUGUAUCCCAUUUGAUCCUUAUGUAAGUCUCAUGAGUAAACAGAACAGAAUUUUGGAAUUCUCGGGUGCCAA` — result for “RBNS enrichment (R)”: 0.324.
For `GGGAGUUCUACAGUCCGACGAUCCCCUAGCCCCCCUUGCCCCUUAUUUCUUCCCUGCUUCCCUCGAACCCAGAGAUUUUUGAGGGAUGAACGGGUAGACAAGGACUGAGAUUGCCUCUGACUUCCUCCUCCCCUGGAAUUCUCGGGUGCCAA`, “RBNS enrichment (R)” read 0.746.
`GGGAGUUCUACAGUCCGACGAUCUGUUUAAAAGUAAAUGAUUUGGGAACUGACAAUGUGUCAGAAAAUAUAUGUUCAUUUAUCAUUUUAAAAUCUUGUAUAAUUUGCCACUGUAUUCAUUUAUGCCUAAAUCUUGGAAUUCUCGGGUGCCAA`: “RBNS enrichment (R)” 0.751.
Under “RBNS enrichment (R)”, `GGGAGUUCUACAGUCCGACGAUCCUGACCUAGGGAGCCCUACGAAGUUGUUAACACAGUACUUCUUAGCAUUCCUACGUUAUCCAUAUGUAUAUUUAUUUGUAUGUGUUUCACGUUAUAAAUGUUUUGUAGUGUGGAAUUCUCGGGUGCCAA` is recorded as 0.259.
For `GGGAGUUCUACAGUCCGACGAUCAGGCUCUGAGGAUGAUGAGCAGGAGUUGUUUGAGCCCACAGUGCCUCACUCAGCCUCCUCAGAACACAAGAUGGCCCGCAGAGGACGGCAGUUACCAGCCUCCUUCCUGCUGGAAUUCUCGGGUGCCAA`, “RBNS enrichment (R)” read 0.354.
`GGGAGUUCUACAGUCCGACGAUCGGGCGCUCCUCUCUGCACACCUACUAGUCACCAGAGACUUUAGGGGGUGGGAUUCCACUCGUGUGUUUCUAUUUUUUGAAAAGCAGACAUUUUAAAAAAUGGUCACGUUUUGGAAUUCUCGGGUGCCAA`: “RBNS enrichment (R)” 0.473.
`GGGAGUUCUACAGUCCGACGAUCAACAAGUAAAUAUAUAUGGUCAUAUACAUAUUGUAUAUAUAUUCAUAUACAAACAUGUAUGUAUACAUGACCUUAAUGGAUCAUAGAAUUGCAGUCAUUUGGUGCUCUGCUGGAAUUCUCGGGUGCCAA` — result for “RBNS enrichment (R)”: 0.382.
`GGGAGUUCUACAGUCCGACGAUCUAUCAUAUCAUGCUUCAACUAUUAAAUUAAGCCCAUCAUAUCAUAGCACUAAAAAGAUUGAGUUAAAAAUAAGAUUUAAAAAAUAUAUAUUGAUUAAAAUGUACCACUAGUGGAAUUCUCGGGUGCCAA` — result for “RBNS enrichment (R)”: 0.856.

Sample 4
Target: Histone acetyltransferase KAT6A, both winged helices, GST fusion (KAT6A, Homo sapiens, UniProt Q92794, residues 1-181)
Technique: protein binding microarray
Form: double-stranded DNA, one strand shown
Matrix: in vitro
Tested at: not given
Setting: 8-mer, flanks averaged, mean of 2 arrays, mostly near background
Relative to: not given
Direction: higher = stronger binding
Target sequence (chain): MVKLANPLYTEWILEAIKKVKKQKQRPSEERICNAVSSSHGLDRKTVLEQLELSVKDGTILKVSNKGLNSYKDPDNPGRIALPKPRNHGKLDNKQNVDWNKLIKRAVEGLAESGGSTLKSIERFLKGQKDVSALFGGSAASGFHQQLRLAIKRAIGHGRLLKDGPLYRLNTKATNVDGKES
The E-score of `TACACGAA` is reported as 0.0769.
`AACCAGGT` has an E-score of -0.194.
With `CGTATGCA` the E-score was 0.0726.
The E-score of `GAATAAGA` is reported as -0.027.
The E-score of `GGCGCTTA` is reported as 0.263.
The E-score of `AAGAAGAC` is reported as -0.139.
With `ATTGGTGG` the E-score was -0.16.
The E-score of `AGTGACCG` is reported as 0.099.

Repeated from above (sample 3):
`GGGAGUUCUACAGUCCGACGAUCGCAGGUUAUUGGAAUAGAAUCCAAAAUCAUUUUCCAGCCAAAACAUCCAUUCGAAAUCUGUAUCCCAUUUGAUCCUUAUGUAAGUCUCAUGAGUAAACAGAACAGAAUUUUGGAAUUCUCGGGUGCCAA` — result for “RBNS enrichment (R)”: 0.324.
For `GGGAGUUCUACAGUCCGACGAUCCCCUAGCCCCCCUUGCCCCUUAUUUCUUCCCUGCUUCCCUCGAACCCAGAGAUUUUUGAGGGAUGAACGGGUAGACAAGGACUGAGAUUGCCUCUGACUUCCUCCUCCCCUGGAAUUCUCGGGUGCCAA`, “RBNS enrichment (R)” read 0.746.
`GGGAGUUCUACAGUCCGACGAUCUGUUUAAAAGUAAAUGAUUUGGGAACUGACAAUGUGUCAGAAAAUAUAUGUUCAUUUAUCAUUUUAAAAUCUUGUAUAAUUUGCCACUGUAUUCAUUUAUGCCUAAAUCUUGGAAUUCUCGGGUGCCAA`: “RBNS enrichment (R)” 0.751.
Under “RBNS enrichment (R)”, `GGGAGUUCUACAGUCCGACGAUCCUGACCUAGGGAGCCCUACGAAGUUGUUAACACAGUACUUCUUAGCAUUCCUACGUUAUCCAUAUGUAUAUUUAUUUGUAUGUGUUUCACGUUAUAAAUGUUUUGUAGUGUGGAAUUCUCGGGUGCCAA` is recorded as 0.259.
